Measured values of several laboratories.
A part holds a random share of what one study measured.

Block 1
Target: Ras GTPase-activating protein-binding protein 1, RRM domain (G3BP1, Homo sapiens, UniProt Q13283)
UniProt Q13283, sequence (whole entry, looked up): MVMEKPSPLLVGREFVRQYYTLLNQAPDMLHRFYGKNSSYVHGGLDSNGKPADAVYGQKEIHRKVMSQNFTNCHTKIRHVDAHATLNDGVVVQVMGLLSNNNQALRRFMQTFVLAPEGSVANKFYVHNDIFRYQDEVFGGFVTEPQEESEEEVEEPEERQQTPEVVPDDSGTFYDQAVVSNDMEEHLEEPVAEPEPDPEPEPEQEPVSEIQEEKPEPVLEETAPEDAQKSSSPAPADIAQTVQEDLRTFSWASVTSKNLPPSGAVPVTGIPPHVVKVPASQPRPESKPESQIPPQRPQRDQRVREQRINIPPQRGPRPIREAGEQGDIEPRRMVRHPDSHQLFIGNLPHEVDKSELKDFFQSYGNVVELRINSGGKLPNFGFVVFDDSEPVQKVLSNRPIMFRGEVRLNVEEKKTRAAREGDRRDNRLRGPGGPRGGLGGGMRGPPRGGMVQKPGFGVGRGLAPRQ
Method: RNA Bind-n-Seq
Molecule type: RNA
Medium: in vitro
Concentration: 1 µM
Notes: whole 134-nt RNA, ends assumed
With: 150 mM KCl
Reference: input library
Direction: higher = stronger binding
Shared flanks, not repeated: GGGAGUUCUACAGUCCGACGAUC … UGGAAUUCUCGGGUGUCAAGG
Sequence | log2 enrichment
UGGGAGGUGGAUUUUGUUUAUUUUUUUCGCUCAUUUCCAGGGGUGGGAAUUUUUUUUUAAUAUGUGUCAUGAAUAAAGUUGUUUUUGAAA | 1.72
UUGCGGCAGCCGCCCCCUUCUGCGCGGUCACGCCGAGCCAGCGCCUGGGCCUGGAACCGGGCCGUAGCCCCCCCAGUUUCGCCCACCACC | -0.557
CACAGACAACACGCACCCACACAGACACAGAGGGAAGGGGUUGGGAUGGGGACAGGGUGCACAGCAGGGCGGGGUAGGACCCCAGCCCGU | -0.393
CACAGACAACACGCACCCACACAGACACAGAGGGAAGGGGUUGGGAUGGGGACAGGGUGCACUGCAGGGCGGGGUAGGACCCCAGCCCCU | -0.0537
AGUCCUGUGCUACACAUCGUAUGUACCGAAUCGGGAAAGGGAAAGGGUUUUUUUGGGAAAGUAUUAUGUUACGCCGUUCGGAUCUGCACU | 0.303
ACUAUGCAGGUGGGCAUCUUUGGGAAGUGGGGCAAGGGGGGGAUAGGGAGGGGGGUAACACUUUGGGAACAGGUGGUCCCAGGUCGUUUC | -0.567
AAGUCCUGUGCUACACAUCGUAUGUACCGAAUCGGGAGGGAAAAAGGGAAAAAGGGAAAGUAUUAUGUUACGCCGUUCGGAUCUGCACUU | 0.724
UGGCCCUGGAGGCAUGCGGGGAGGAAGAGGUGGCCUCAUGGAUCGUGGUGGUCCCGGUGGAAUGUUCAGAGGUGGCCGUGGUGGAGACAG | 0.769
CUCAAGUCCUGUGCUACACAUCGUAUGUACCGAAUCGGAGGUUUGGUUUUUGGAAAGUAUUAUGUUACGCCGUUCGGAUCUGCACUUCCA | -0.227
UCCUGUGCUACACAUCGUAUGUACCGAAUCGGGGUUUUUGGGGAAAAAAAGGGGUGGGGAAAGUAUUAUGUUACGCCGUUCGGAUCUGCA | 0.57

Block 2
Target: RING finger protein unkempt homolog, zinc fingers 1-6, GST-SBP tag (UNK, Homo sapiens, UniProt Q9C0B0, residues 30-357)
Method: RNA Bind-n-Seq
Molecule type: RNA
Medium: in vitro
Concentration: not given
Notes: RNA with constant flanks, ends assumed
Reference: input RNA pool
Direction: higher = stronger binding
Shared flanks, not repeated: GGGAGUUCUACAGUCCGACGAUC … CAACAGAGGAUUGAGCAUCA
Target sequence (chain): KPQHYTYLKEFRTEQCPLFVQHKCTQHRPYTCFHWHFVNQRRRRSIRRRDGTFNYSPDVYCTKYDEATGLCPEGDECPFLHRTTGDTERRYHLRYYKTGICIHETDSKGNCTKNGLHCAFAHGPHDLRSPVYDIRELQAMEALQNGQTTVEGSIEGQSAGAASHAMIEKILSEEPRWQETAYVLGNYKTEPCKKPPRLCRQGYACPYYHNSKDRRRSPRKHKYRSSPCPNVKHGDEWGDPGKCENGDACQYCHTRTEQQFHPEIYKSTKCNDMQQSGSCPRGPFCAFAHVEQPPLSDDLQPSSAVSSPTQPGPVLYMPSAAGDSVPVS
Sequence | bound/input enrichment [ratio]
UGAGCCCCGAGCCCGGCGCGGUCCCCGCAAGAUGGACGGUUUCGCCGGCAGCCUCGAUGACCGUAUUUCUGCUGCAAGUACCUCUGACGUUCAAGACCGCCUCUCAGCUCUUGAGUCACG | 0.0917
UCCCUCGCCUGUGGUAAACCAACACAGCGGGUUCUUACAAAAGAACCCAAAUCAAAGGAAACCGAAAAUGGUCAUAUAUUUACAGUUAAUGAUCAAUUCACAUCCAAACUACACAGAGUC | 0.198
UACAGAUAGUACCAUUAAGAUGAGUUUUCAGGGGUCUAGGGAAGUUAAGGGUGGGAGGGUAUCCGGUAAGGGAGAUAGACGUUUAGAGAUGUGUUAAGUUAGAAAUCAGAUUGAUGCAAG | 37.6
GCAAAUUUUGCCAGAAAUGAUGCAAAUUGUAUUCAUAUGGUAGACAAUGGGAUUGCCGAAAAACUUAUGGAUUUACUGGACAGACAUGUAGAAGAUGGAAAUGUAACAGUACAGCAUGCA | 0.61
CUGGACACCAACAGUGAUGGUCAGCUAGAUUUCUCAGAAUUUCUUAAUCUGAUUGGUGGCCCCGCUAUGGCUUGCCAUGACUCCUUCCUCAAGGCUGUCCCUUCCCAGAAGCGGACCUGA | 0.104
UAUACUGGGAUUGAUCAUCACUGGAAAGAAGCUGUUUUUGCCACAUGUGGACAGCAAGCCGACAUUUGGGAUGAACAAAGAACUAAUCCUAUAUGUUCAAUGACCUGGGGAUUUGACAGU | 0.0716
GAGGAUGGAGAAGACCAGCCAAAGCAAGUUUAUGUUGAUAAGUUGGCUGAAUUAAAAAAUCCCGGUCAACCUAUUAAGAUACGUUUCCAGGAAUCUGAAGAACGACCAAAAUUAUUUGAA | 0.41
AAAAGCACAAGUGUUCGAACUUCAACUUUUUACUCCAGACUGAGGCUACCCAGGGACAGACUCCGUGGCAGCAGGGUUGCAUCAGCACUGGUCACUCCAGUCCAGCCUGUGUGUAAAAUC | 0.0922
UGCGUCACAUGGGAAAUAAAUCCUGAGGCCAGGAUCACCAGUGGGGUAGAGUCAUCUUCACCGUCUCCUGUUAUCCUCCCCCUGAACAAAGAACAAAGUGAGACUGGGAAGCUAGUGUUG | 0.25
AAUGCAGUAGAAGCCAUCCACAGAGCUGUGGAAUUUAAUCCACACGUGCCAAAAUAUCUACCCGAAAUGAAAAGCUUAAUCCUCCCACCAGAACACAUCCUGAAGAGAGGAGACAGUGAA | 0.507
AGUUACCGGCUACCCAAGGACUUUGUAGACCUCUCUACUGGGGAGGACGCUCACAAGCUAACCGACUUCCUUAAGCUGAAGAGAAAUCAGCAGGAGGACGACUGAUGAGCGUACUGGAAC | 0.0603

Block 3
Target: RNA binding protein fox-1 homolog 2, RRM domain, GST-SBP tag (RBFOX2, Homo sapiens, UniProt O43251-10, residues 100-194)
Method: RNA Bind-n-Seq
Molecule type: RNA
Medium: in vitro
Concentration: 365 nM
Notes: natural RNA segment, single round, ends assumed
Reference: no-protein control
Direction: higher = stronger binding
Shared flanks, not repeated: GGGAGUUCUACAGUCCGACGAUC … UGGAAUUCUCGGGUGCCAA
Residues (chain): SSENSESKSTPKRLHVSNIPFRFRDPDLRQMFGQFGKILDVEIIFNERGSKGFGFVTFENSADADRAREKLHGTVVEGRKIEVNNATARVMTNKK
Sequence | RBNS enrichment (R)
AUAAAAACUGACCUUCUUUAAUCAUAUACUUGUCUUUUGUAAAUAGCAGCUUUUGUGUCAUUCUCCCCACUUUAUUAGUUAAUUUAAAUUGGAAAAAACCCUCAAACUAA | 0.813
UCCCUGAGCCACAUGUUUCACACAAGUGUAGAAAAUGCCAGGGAUCCACCACAAGAUGGAGAUGGUCAGCACAAACCGAUUCUGUUCCUCUUUAAAGUGUAUAUUAGCCA | 0.362
GGUCUUAAUGUAGCUACUGUGCGGGUCACAGUUUCUCCCAAUGAUUAUGACUGGGACAUUCUUUGGUAGAUACCAUUUGCUACUAGUUUAUUUUGUGGCUAGAAAGUCAG | 1.17
GGUAUUUUAAAGUUUAUGAUGAAGUAUUCUUUUUAUAUUCUUAAAUAUAAACUUGGAAAGGCAUUUAGCCUUGAUUUGUUAAAUCCUAAGGAUUUCCUGUAAGGUUUUUU | 0.86
GGGGGGCGCUCUAGGGAGCCCCUUGUGCAGAUGCUCUUUAAAUAAUAAAGGUGGUUUUGAUUAAUGGUCUCUGCGUCUACAAACGGAAGCAGCGGUGUGGACAUUUUGAG | 0.492
CACUCCUUCUUCGUUGUCGAUGUUGUACUCAGCCUAUGGUAGGAGAGGAUGUGGCUUUGCAACUCAGAUCAGACAAAGAAUUUUUGAAUUGGCAGGCUUUAGCCUACAAA | 0.619
AAUGAUCCCCUUGACUGCAUCAUGCAUGUGCGGAAAAAAUAAAUCCAGAAGUAGCAGAACCCUAGCUCUGUUUGUGUGACAUAGUAGGGUAUUAGACUAUGAGGUUGUGG | 5.98
UUCUCUAAAAGUGUUGAAUGAUACAGCCAUUGCACUGAAGUUUGAGCUGUGUGCGUGUGAAUUUAUACUGUUUCAAAAAUUUCAAAUGCAUGGUAGCAUGUAGAAAGGUU | 4.66
AGAAAUACAAUGGAUGUGGAAACUAAUUCUAAAAAAUAGCCCUAUUAAUAGGGCAGAGACUCUGGUCCAUUUCCCAGCUGUACUUCUCUCUAAGAGGUGUAUGAAAAACC | 0.34
GCCUCUCCUUAGAGGCCUUCACAAGAAGCAUAGACACUGUCCCUGACGGUAAUUAGAAGAAGCAGAGGCUCACACAUCUCCUGGCACGGUCUUAUCUCCCUCGUGUGUUG | 0.401
GAACAUUGUGGGGAGGGACUCUAAAUAAACCAGUUUAGGCAUUUGCUAGCUUUAGGUGCUUUUAUUGGUGCCUGCCCUUUUCCUUGUUCAUUUUAAUUUCUGCAAUAAUC | 1.3
CCUAGGGUUUCGAUGUGCUGUGUUCUCAUCCUACAGCUGGUUUGGUAAUGAUCUGCAAGUCCCGGAGAGCAACAGCACAGCUCCGCCUGACGCUCUCAUUAAAAUCCAUG | 0.757

Block 4
Target: Centromere-binding protein 1, full length, N-terminal tag (CBF1, Saccharomyces cerevisiae, UniProt P17106, residues 1-351)
UniProt P17106, sequence (whole entry, looked up): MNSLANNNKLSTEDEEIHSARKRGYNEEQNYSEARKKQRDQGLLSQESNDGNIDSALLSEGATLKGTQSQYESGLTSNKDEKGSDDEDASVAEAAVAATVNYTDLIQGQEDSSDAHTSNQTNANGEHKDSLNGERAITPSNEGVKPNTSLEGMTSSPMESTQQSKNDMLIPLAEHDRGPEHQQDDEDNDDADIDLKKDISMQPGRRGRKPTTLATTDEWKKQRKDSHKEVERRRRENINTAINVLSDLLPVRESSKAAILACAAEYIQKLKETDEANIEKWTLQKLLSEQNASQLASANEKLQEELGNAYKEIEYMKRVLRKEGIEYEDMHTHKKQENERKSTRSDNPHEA
Method: protein-binding microarray
Molecule type: double-stranded DNA, one strand shown
Medium: in vitro
Concentration: 0.8 µM
Notes: whole 60-bp probe, no competitor
Direction: higher = stronger binding
Shared flanks, not repeated: … GTCTTGATTCGCTTGACGCTGCTG
Sequence | fluorescence intensity
GAAATACAGAGGCTTCATGTGACCGGAGAAAGGTAG | 2000 a.u.
GAAAAACGAGCCACTCACGTGAAAACATATAGATAG | 3540 a.u.
CTATTCACGAACGTTCACCAGACATTTGGAGGCTTC | 509 a.u.
CTAATCATCCTTTACCACGTCATTCATTAAAACTTC | 570 a.u.
CTATGTGAATATGAGCGCACGCAATACATTGAGTTC | 531 a.u.
GAAACTGCTATTTCTCACGTTTCTTTCCCTATCTAG | 610 a.u.
CTATATTTTTTTCACGTGCTTTTTTTTCAAGGCTTC | 7280 a.u.
GAAAGAATACTTGATGAACAGGTGAAACTTGAATAG | 575 a.u.
CTATATCTTACGCGTCACGCGTCGCGTTGCCGTTTC | 1390 a.u.
GAAAAAAATGAAGGTGACGCAAAAAAGGAATTGTAG | 570 a.u.
GAAAGCACATAGACGCACGATACAAATACTAGTTAG | 545 a.u.
GAACGAGTAGGCTATCACGTATGCATGGAACGTTAG | 563 a.u.
CTATCTAAAATTGGTCACGATACTAATCTTGAGTTC | 2410 a.u.
TGTACGAAGCTATATCATCAGTGTATAGTAGTTAGG | 534 a.u.
CTAATACTATGGGTGCAGGTGAGGCGGTTTTTTTTC | 545 a.u.
GAATTGGTCATATTAAACATGACAGTTTAATAATAG | 588 a.u.
CTAATTGAGAACACAAAGATCACGTTGAACGAATTC | 1730 a.u.
CTATATTGTTACCACCACCTCCCCGTGATTTACTTC | 2350 a.u.
GAATTCTTTCTTGGTGACATGAAAATAATAATATAG | 534 a.u.
GAAATCCATTATCCACACGTTGCTGTGTCGACTTAG | 504 a.u.
GAAATACTGTTTTTATGCGTGCGTACGCAACAGTAG | 518 a.u.
GAATTAACGCTATAACGTGTAGTATGTACAGGCTAG | 559 a.u.
